Published values gathered from unrelated publications.
Every numbered part comes from another study and shows a few of its results, in no order. “And” joins repeats or separate records; there may be more than shown.
UniProt P23458, sequence (whole entry, looked up): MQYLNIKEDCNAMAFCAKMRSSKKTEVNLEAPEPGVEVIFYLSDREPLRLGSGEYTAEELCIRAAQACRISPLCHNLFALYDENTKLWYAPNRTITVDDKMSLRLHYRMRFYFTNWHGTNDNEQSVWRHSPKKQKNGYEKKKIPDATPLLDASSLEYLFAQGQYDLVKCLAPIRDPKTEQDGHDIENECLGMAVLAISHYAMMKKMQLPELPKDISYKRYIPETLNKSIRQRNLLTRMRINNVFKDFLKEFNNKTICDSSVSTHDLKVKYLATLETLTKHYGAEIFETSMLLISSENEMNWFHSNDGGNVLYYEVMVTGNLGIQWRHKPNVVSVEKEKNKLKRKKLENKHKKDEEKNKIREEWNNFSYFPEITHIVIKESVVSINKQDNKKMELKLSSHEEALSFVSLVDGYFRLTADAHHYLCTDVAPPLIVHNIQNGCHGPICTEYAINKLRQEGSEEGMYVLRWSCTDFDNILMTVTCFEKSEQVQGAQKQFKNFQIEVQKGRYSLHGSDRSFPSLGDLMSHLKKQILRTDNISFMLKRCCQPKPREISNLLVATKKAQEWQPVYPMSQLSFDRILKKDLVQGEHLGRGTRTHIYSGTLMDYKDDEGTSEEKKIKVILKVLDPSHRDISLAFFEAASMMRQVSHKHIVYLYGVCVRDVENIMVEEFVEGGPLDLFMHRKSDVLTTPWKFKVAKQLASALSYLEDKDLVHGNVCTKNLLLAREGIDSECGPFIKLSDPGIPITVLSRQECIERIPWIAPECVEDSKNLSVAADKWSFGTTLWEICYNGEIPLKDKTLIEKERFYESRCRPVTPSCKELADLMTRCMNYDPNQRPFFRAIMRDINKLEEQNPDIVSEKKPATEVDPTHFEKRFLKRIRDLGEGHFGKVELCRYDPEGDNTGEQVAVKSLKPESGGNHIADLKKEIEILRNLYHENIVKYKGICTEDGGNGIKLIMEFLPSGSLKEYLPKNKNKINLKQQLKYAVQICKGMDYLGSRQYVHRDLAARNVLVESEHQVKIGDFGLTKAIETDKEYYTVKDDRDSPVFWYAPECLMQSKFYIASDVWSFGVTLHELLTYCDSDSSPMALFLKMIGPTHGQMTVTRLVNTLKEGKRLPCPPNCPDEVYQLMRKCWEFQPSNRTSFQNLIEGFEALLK
UniProt Q9Y616, sequence (whole entry, looked up): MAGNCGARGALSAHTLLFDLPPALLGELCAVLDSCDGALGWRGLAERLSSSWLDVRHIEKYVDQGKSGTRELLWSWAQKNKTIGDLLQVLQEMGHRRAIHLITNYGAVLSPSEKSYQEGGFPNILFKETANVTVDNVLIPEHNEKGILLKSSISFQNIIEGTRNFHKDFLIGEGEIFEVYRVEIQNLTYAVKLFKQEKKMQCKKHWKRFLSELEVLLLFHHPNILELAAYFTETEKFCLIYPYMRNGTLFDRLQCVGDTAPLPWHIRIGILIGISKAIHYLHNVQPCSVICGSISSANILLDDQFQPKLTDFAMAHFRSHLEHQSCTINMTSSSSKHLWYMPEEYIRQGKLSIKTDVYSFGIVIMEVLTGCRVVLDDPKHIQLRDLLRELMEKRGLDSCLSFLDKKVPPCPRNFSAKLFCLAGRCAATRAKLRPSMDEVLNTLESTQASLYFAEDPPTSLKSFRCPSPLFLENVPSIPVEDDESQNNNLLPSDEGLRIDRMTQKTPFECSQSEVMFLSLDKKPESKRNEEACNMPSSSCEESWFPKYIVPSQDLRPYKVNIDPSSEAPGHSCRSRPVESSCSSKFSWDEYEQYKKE
UniProt O75716, sequence (whole entry, looked up): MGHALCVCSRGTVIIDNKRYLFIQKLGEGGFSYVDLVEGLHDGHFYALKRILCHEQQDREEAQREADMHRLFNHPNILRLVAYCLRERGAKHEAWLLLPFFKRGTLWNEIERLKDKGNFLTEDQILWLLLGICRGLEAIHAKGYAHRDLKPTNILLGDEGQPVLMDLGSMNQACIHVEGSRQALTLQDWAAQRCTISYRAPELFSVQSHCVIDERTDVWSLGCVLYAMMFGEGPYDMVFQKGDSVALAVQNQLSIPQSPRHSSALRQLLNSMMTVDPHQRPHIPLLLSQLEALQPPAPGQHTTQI

Block 1
Target: Glycogen synthase kinase-3 alpha (GSK3A, Homo sapiens, UniProt P49840)
UniProt P49840, sequence (whole entry, looked up): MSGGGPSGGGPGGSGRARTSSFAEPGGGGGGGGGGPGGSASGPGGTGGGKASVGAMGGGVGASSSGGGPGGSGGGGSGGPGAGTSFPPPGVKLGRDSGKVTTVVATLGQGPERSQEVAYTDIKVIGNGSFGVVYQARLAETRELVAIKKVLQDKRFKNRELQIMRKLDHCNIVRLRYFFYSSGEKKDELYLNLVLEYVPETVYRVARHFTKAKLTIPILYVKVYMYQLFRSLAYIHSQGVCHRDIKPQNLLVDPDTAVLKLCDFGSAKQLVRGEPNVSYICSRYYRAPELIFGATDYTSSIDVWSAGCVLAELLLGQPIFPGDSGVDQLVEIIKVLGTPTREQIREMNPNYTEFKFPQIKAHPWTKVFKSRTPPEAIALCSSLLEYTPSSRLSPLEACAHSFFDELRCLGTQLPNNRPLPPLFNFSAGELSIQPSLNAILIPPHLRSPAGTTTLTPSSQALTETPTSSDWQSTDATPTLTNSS
Observed: enzyme activity
Action: inhibitor
Concentration: 0.5 µM
Reference: control
Measurement: remaining activity
SMILES = Cc1cn(-c2cc(NC(=O)c3ccc(C)c(Nc4nccc(-c5cccnc5)n4)c3)cc(C(F)(F)F)c2)cn1; value = 99.4%
SMILES = O=C(NC(NC(=S)Nc1ccc(F)c([N+](=O)[O-])c1)C(Cl)(Cl)Cl)C(c1ccccc1)c1ccccc1 (stereo not drawn); value = 105%
SMILES = CCN(CC)CCNC(=O)c1c(C)[nH]c(/C=C2\C(=O)Nc3ccc(Cl)cc32)c1C; value = 88.3%
SMILES = O=C1C(Cl)=C(N2C(=O)CCC2=O)C(=O)c2ccccc21; value = 99.8%
SMILES = O=C1c2ccccc2-c2n[nH]c3cccc1c23; value = 118%
SMILES = CN(C)C[C@H]1CCn2c(c(C3=C(c4cn(C)c5ccccc45)C(=O)NC3=O)c3ccccc32)C1; value = 14.2%
SMILES = c1ccc(-c2[nH]ncc2-c2ccnc3ccccc23)nc1; value = 95.1%
SMILES = C[C@@H]1CCN(C(=O)CC#N)C[C@@H]1N(C)c1ncnc2[nH]ccc12; value = 103%
SMILES = O=c1cc(-c2cccc3c2Sc2ccccc2S3)oc(N2CCOCC2)c1; value = 86.7%
SMILES = Cn1nc2c3c(cccc31)C(=O)c1ccccc1-2; value = 91.1%
SMILES = COc1cc2ncnc(Nc3ccc(O)c(Br)c3)c2cc1OC; value = 131%
SMILES = c1ccc(-c2cnc(Nc3ccc(OCCN4CCCC4)cc3)s2)cc1; value = 99.2%
SMILES = COc1cc2c(cc1OC)-c1[nH]nc(Nc3cccc(F)c3)c1C2; value = 101%
SMILES = O=C(Nc1cccc(Nc2nccc(Nc3cccc(C(F)(F)F)c3)n2)c1)C1CC1; value = 95%
SMILES = N#Cc1c(NC(=O)c2cccc3ccccc23)sc2c1CCCC2; value = 97.2%
SMILES = CCN(CC)C(=O)c1ccc(Nc2nc(OCC3CCCCC3)c3[nH]cnc3n2)cc1; value = 80.3%
SMILES = Cc1nc2cc3nc(-c4cccs4)cnc3cc2n1C; value = 94.1%
SMILES = CCN(CC)CCNC(=O)c1c(C)[nH]c(/C=C2\C(=O)Nc3ccc(F)cc32)c1C; value = 85.5%
SMILES = COc1cc2ncnc(Nc3cccc(Cl)c3)c2cc1OC; value = 104%
SMILES = Nc1cccc(-c2cc3c(Oc4cccc(O)c4)ncnc3[nH]2)c1; value = 41.6%
SMILES = N#C/C(=C\c1ccc(O)c(O)c1)C(=O)NCc1ccccc1; value = 96.5%

Block 2
Target: DNA polymerase theta, ATPase domain (POLQ, Homo sapiens, UniProt O75417)
UniProt O75417, sequence (whole entry, unmodified, looked up): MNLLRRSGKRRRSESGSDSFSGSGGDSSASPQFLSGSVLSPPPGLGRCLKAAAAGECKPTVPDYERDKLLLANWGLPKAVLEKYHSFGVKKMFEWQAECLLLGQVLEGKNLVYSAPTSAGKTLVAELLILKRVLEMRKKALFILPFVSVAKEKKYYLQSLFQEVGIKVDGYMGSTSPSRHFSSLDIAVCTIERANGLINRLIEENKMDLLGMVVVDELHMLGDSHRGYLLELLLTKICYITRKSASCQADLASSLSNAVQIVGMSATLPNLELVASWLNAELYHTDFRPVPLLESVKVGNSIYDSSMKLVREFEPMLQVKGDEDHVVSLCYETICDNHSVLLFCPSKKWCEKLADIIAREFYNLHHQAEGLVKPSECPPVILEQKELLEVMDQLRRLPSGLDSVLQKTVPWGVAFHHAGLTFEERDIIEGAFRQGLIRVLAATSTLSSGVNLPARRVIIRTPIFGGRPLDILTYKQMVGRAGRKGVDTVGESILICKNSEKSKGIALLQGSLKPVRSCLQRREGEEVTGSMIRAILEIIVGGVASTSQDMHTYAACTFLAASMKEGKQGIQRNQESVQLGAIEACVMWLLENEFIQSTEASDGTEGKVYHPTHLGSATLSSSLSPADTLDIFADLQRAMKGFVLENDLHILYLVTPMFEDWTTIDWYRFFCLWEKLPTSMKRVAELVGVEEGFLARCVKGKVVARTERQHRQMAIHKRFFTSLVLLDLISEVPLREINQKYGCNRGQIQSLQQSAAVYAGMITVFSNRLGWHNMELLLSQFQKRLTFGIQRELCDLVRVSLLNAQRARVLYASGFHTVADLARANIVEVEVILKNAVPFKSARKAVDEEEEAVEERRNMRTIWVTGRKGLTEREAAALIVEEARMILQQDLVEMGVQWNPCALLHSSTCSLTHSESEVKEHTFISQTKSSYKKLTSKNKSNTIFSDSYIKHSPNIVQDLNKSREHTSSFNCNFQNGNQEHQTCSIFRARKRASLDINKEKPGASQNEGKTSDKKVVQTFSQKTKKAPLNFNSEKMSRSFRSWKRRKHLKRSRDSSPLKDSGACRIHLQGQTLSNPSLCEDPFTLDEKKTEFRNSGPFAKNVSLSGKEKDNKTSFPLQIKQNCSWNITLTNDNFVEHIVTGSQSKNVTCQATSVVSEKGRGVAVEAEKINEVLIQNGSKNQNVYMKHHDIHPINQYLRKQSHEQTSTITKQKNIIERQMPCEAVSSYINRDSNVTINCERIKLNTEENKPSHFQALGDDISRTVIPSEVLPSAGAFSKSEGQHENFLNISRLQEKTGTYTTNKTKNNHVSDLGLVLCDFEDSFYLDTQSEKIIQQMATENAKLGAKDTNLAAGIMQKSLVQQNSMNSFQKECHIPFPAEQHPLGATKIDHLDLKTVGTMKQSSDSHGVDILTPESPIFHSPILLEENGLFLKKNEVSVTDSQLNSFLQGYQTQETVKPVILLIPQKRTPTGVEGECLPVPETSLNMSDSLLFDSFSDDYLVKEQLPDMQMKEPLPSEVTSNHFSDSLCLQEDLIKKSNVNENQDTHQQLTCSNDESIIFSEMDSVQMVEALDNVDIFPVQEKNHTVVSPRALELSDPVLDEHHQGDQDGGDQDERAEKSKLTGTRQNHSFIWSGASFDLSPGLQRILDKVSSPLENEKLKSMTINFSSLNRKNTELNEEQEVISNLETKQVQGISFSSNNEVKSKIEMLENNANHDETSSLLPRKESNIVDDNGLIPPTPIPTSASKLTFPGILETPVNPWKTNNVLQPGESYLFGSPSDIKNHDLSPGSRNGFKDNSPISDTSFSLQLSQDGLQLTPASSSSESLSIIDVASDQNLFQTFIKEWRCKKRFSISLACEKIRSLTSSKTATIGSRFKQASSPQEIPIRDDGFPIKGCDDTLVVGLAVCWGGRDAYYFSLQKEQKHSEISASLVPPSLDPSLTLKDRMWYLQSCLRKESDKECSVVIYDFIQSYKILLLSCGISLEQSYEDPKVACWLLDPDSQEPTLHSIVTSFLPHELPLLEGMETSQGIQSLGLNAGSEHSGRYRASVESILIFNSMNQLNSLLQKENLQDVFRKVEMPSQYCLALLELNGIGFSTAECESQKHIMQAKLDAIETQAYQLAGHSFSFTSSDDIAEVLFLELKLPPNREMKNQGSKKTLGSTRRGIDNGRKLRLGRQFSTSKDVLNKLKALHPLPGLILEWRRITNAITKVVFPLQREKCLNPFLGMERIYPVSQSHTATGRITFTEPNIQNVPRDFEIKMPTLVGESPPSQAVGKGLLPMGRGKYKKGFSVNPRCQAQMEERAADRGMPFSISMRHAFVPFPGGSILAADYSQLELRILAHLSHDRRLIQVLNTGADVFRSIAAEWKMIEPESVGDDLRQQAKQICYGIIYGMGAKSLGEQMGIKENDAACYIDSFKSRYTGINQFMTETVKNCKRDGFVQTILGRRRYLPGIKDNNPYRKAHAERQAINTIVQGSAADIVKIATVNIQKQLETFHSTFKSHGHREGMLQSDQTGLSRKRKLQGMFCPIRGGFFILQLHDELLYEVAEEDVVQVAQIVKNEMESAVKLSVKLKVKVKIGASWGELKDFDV
Observed: enzyme activity
Action: inhibitor
Concentration: 77 µM
Reference: untreated
Measurement: remaining activity
Compound = Cn1c(-c2ccc3c(c2)OCO3)cc(=O)c2ccccc21; value = 108%
Compound = CCOC(=O)c1ccc(C#Cc2ccc3c(c2)C(C)(C)CCS3)nc1; value = 99.1%
Compound = COC1=CC(=O)C[C@@H](C)[C@]12Oc1c(Cl)c(OC)cc(OC)c1C2=O; value = 101% and 103%
Compound = O=S(=O)(O)CCSSCCS(=O)(=O)O; value = 95.5%
Compound = CN(C)c1ccc(-c2nc3ncc(Cl)c(N4CCN(CC(=O)Nc5nccs5)CC4)c3[nH]2)cc1; value = 99.3%
Compound = CCOC(=O)[N-]c1c[n+](N2CCOCC2)no1; value = 97.1% and 100%

Block 3
SMILES: CO[C@@H]1[C@H](N(C)C(=O)c2ccccc2)C[C@H]2O[C@]1(C)n1c3ccccc3c3c4c(c5c6ccccc6n2c5c31)C(=O)NC4
Action: inhibitor
Concentration: 1 µM
Measurement: inhibition
target = Tyrosine-protein kinase JAK3 (JAK3, Homo sapiens, UniProt P52333); value = 100%
target = Peripheral plasma membrane protein CASK (CASK, Homo sapiens, UniProt O14936); observed = enzyme activity; value = 18%
target = Serine/threonine-protein kinase Nek4 (NEK4, Homo sapiens, UniProt P51957); observed = enzyme activity; value = 0%
target = Myosin light chain kinase 2, skeletal/cardiac muscle (MYLK2, Homo sapiens, UniProt Q9H1R3); observed = enzyme activity; value = 12%
target = NUAK family SNF1-like kinase 1 (NUAK1, Homo sapiens, UniProt O60285); observed = enzyme activity; value = 97%

Block 4
SMILES: Cn1nc(C(=O)NCc2ccc(C(=O)O)cc2)cc1-c1ccc2[nH]ccc2c1
Observed: cell-free assay
Method: competition with immobilised ligand
Concentration: 0.1 µM
Measurement: remaining binding
target = Calcium/calmodulin-dependent protein kinase kinase 1 (CAMKK1, Homo sapiens, UniProt Q8N5S9); value = 85%
target = Interleukin-1 receptor-associated kinase 3 (IRAK3, Homo sapiens, UniProt Q9Y616); value = 83%
target = Dual specificity protein kinase CLK2 (CLK2, Homo sapiens, UniProt P49760); value = 100%
target = Tyrosine-protein kinase ABL1, non-phosphorylated (ABL1, Homo sapiens, UniProt P00519, T315I); value = 73%
target = Aurora kinase C (AURKC, Homo sapiens, UniProt Q9UQB9); value = 76%
target = Serine/threonine-protein kinase Sgk2 (SGK2, Homo sapiens, UniProt Q9HBY8); value = 54%
target = Casein kinase I isoform epsilon (CSNK1E, Homo sapiens, UniProt P49674); value = 80%
target = SRSF protein kinase 3 (SRPK3, Homo sapiens, UniProt Q9UPE1); value = 100%
target = Rhodopsin kinase GRK1 (GRK1, Homo sapiens, UniProt Q15835); value = 100%
target = 5'-AMP-activated protein kinase catalytic subunit alpha-2 (PRKAA2, Homo sapiens, UniProt P54646); value = 91%
target = Ephrin type-A receptor 4 (EPHA4, Homo sapiens, UniProt P54764); value = 100%
target = Receptor tyrosine-protein kinase erbB-3 (ERBB3, Homo sapiens, UniProt P21860); value = 77%
target = Dual specificity tyrosine-phosphorylation-regulated kinase 1B (DYRK1B, Homo sapiens, UniProt Q9Y463); value = 100%
target = Discoidin domain-containing receptor 2 (DDR2, Homo sapiens, UniProt Q16832); value = 75%
target = Ephrin type-A receptor 8 (EPHA8, Homo sapiens, UniProt P29322); value = 92%
target = Cytoplasmic tyrosine-protein kinase BMX (BMX, Homo sapiens, UniProt P51813); value = 98%
target = Homeodomain-interacting protein kinase 3 (HIPK3, Homo sapiens, UniProt Q9H422); value = 88%
target = Tyrosine-protein kinase Fer (FER, Homo sapiens, UniProt P16591); value = 93%
target = Tyrosine-protein kinase JAK1, JH1 (JAK1, Homo sapiens, UniProt P23458); value = 93%
target = Receptor tyrosine-protein kinase erbB-2 (ERBB2, Homo sapiens, UniProt P04626); value = 92%
target = Serine/threonine-protein kinase ULK1 (ULK1, Homo sapiens, UniProt O75385); value = 83%
target = Dual specificity mitogen-activated protein kinase kinase 7 (MAP2K7, Homo sapiens, UniProt O14733); value = 95%
target = Tyrosine-protein kinase JAK1, JH2 (JAK1, Homo sapiens, UniProt P23458); value = 84%
target = Serine/threonine-protein kinase 16 (STK16, Homo sapiens, UniProt O75716); value = 86%
target = G protein-coupled receptor kinase 3 (GRK3, Homo sapiens, UniProt P35626); value = 81%

Some of these lines once more (block 4):
target = Serine/threonine-protein kinase Sgk2 (SGK2, Homo sapiens, UniProt Q9HBY8); value = 54%
target = Casein kinase I isoform epsilon (CSNK1E, Homo sapiens, UniProt P49674); value = 80%
target = SRSF protein kinase 3 (SRPK3, Homo sapiens, UniProt Q9UPE1); value = 100%
target = Rhodopsin kinase GRK1 (GRK1, Homo sapiens, UniProt Q15835); value = 100%
target = 5'-AMP-activated protein kinase catalytic subunit alpha-2 (PRKAA2, Homo sapiens, UniProt P54646); value = 91%
target = Ephrin type-A receptor 4 (EPHA4, Homo sapiens, UniProt P54764); value = 100%
target = Receptor tyrosine-protein kinase erbB-3 (ERBB3, Homo sapiens, UniProt P21860); value = 77%
target = Dual specificity tyrosine-phosphorylation-regulated kinase 1B (DYRK1B, Homo sapiens, UniProt Q9Y463); value = 100%
